Assay results collected from several papers.
Lines come from different studies, so protocols differ. ± marks the error that the study gave.
Sample: plasma

| SMILES | system | conditions | AUC(0-t) |
| --- | --- | --- | --- |
| Nc1ccn([C@@H]2O[C@H](CO)[C@@H](O)C2(F)F)c(=O)n1 | BALB/c mouse, female | intravenous, 4 mg/kg | 10900 ± 2550 ng·h/mL |
| C#C[C@]1(CO)O[C@@H](n2cnc3c(N)nc(F)nc32)C[C@@H]1O | human | oral, 200 mg, single dose, fasted | 24.1 µM·h |
| CCCC[C@H](NC(C)=O)C(=O)N[C@H]1CCC(=O)NC[C@@H](C(=O)N[C@@H](Cc2c[nH]c3ccccc23)C(N)=O)NC(=O)[C@H](CCCNC(=N)N)NC(=O)[C@@H](Cc2ccccc2)NC(=O)[C@H](Cc2c[nH]cn2)NC1=O | CD Sprague-Dawley rat, female | subcutaneous, 25.0 mg/kg/day, day 1 | 4920 ng·h/mL |
| CCCCC1(CCCC)CN(c2ccccc2)c2cc(SC)c(OCC(=O)N[C@@H](C(=O)NCC(=O)O)c3ccccc3)cc2S(=O)(=O)C1 | human | oral, 20 mg, before breakfast | 2.94 ng·h/mL |
| N=C(N)NCCC[C@H](NCC(=O)[C@@H](O)[C@H](O)[C@H](O)CO)C(=O)O | C57BL/6J mouse | intraperitoneal, 40 mM, 2.5 µL/g | 81 µM·h |
| CCCOc1ccc([C@H]2CNC(=O)N2c2ccc3[nH]cnc3c2)cc1 | human | oral, 800 mg, single dose, fasted, healthy volunteers | 8550 ng·h/mL |
| CNCc1ccc(-c2[nH]c3cc(F)cc4c3c2CCNC4=O)cc1 | human patients | oral, 300 mg once daily, day 15, 24 h, steady state, arithmetic mean | 9610 ng·h/mL |
| CNc1nc(Nc2ccc(-n3cnc(C)n3)c(OC)c2)nc2c1CC[C@H]2c1ccc(F)cc1 | human | oral, 100 mg, single dose, healthy volunteers | 4590 ng·h/mL |
| COc1cccc(CN)c1O | C57BL/6N mouse, male | intraperitoneal, 200 mg/kg | 361000 ± 42000 ng·h/mL |

Excerpt of the above:
| SMILES | system | conditions | AUC(0-t) |
| --- | --- | --- | --- |
| CNc1nc(Nc2ccc(-n3cnc(C)n3)c(OC)c2)nc2c1CC[C@H]2c1ccc(F)cc1 | human | oral, 100 mg, single dose, healthy volunteers | 4590 ng·h/mL |
